Experimental data of several laboratories.
Numbered parts are unrelated; each lists some results of a single study.

Series 1 — method: RNA Bind-n-Seq; molecule type: RNA; medium: in vitro; tested at: not given; reference: input RNA pool; direction: higher = stronger binding; measurement: bound/input enrichment
Target: RING finger protein unkempt homolog, zinc fingers 1-6, GST-SBP tag (UNK, Homo sapiens, UniProt Q9C0B0, residues 30-357)
Setting: RNA with constant flanks, human and mouse sites, ends assumed
All sequences stand within: GGGAGUUCUACAGUCCGACGAUC … CAACAGAGGAUUGAGCAUCA
Construct (chain): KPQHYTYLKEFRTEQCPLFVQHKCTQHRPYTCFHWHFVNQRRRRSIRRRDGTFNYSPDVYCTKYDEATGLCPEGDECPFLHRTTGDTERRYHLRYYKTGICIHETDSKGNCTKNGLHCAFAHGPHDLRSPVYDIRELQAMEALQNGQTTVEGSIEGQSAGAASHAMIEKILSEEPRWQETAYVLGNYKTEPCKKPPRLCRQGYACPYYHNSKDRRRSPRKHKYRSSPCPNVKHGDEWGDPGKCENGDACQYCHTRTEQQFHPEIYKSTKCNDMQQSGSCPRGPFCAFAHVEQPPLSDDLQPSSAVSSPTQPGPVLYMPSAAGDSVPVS
Sequence = CAGCAUGUCAUAGAAACCUUGAUUGGCAAAAAGCAGCAGAUCUCUCUUGCCACCCAGAUGGUUAGGAUGAUUCUGAAGAUUGAUGACAUCCGUAAGCCUGGAGAAUCUGAAGAAUAAACU; value = 0.292 ratio
Sequence = AUGCCAAGUGUUUCUAAGCUUUAUUCUGAGAACUGACUUUCAACCUUCAGGUAUGCAUUUAUAGAAUUUGCUUCAUUUGAAGAUGCUAAAGAAGCUUUAAAUUCCUGUAAUAAAAUGGAA; value = 0.0873 ratio
Sequence = AAGGACCCUGAAGGUUGUGACAAAAGUGAUGACAAAAACACUGUAAACCUCUUUGGGAAAGUUAUUGAAACCACAGAGCAAGAUCAGGAGCCCAGCGAGGCCACCGUUGGGAAUGGUGAG; value = 0.32 ratio
Sequence = AGCCAAUGGUGAUCAUGGAAUGGAGGGGAAUAACACUGCAGGGUCUCCAACUGACUUCCUUGAAGAGAGAGUGGACUAUCCGGAUUAUCAGAGCAGCCAGAACUGGCCAGAAGAUGCAAG; value = 0.187 ratio
Sequence = UAUCAAAACAUGGACAAGACUAAGACAGAUUAUACCAGAAUAAAGAGCCUCAGCAUCAAUGUGAAUUUGGGAAACAAAGAAGUGAUGGAUACUACUAAAAGUCAAGUUAGAGAUUAUCCA; value = 0.209 ratio
Sequence = GUUCGCCUGUAUCGCAAAGCAUUAGAAGUCUUCCCAGAGUUUGCUGCUGCACAUUCCAAUUUAGCAAGUGUACUGCAACAGCAGGGCAAGCUGCAGGAAGCACUGAUGCACUAUAAAGAA; value = 0.291 ratio
Sequence = AAGGGUCACCCUUGAGGACAAACCUCUGUGCAGGACCUUGGCCAGAGUGGGGAGGGUGGCCAGCCACUCUGAGGGACAGAACGUCCUCUUGUGUAUAAUAAACCUUUAAUUUUGGUGUUG; value = 0.46 ratio
Sequence = GGAUAUUCUAAAAUUCAGAUUUACUUAACUGAUCCAGACUUUAAGGGUUUUAUACGAAUUAGCUGUUGCCAAUACUGUAAGGUAGAAUUUCAUAUGAACUGCUGGAAAAAGUUAAAAACA; value = 0.586 ratio
Sequence = UAUGACCUGGUUGCAGGGAGUCAAUGCCUGAAGAGCAGUUACGUCCUCAGCAAAUCCCGAGCCCUGGAGCAUUUUCCCAUGCUCCAGAAGGACAAGCUGGUAGGCGCCAUUGUCUACUAU; value = 0.0924 ratio
Sequence = AGUUUCAGUAUCUCUGGCUGGAGUAUUGACUCACAAAAAGAACCAUCCAGAGAGCACAGUUAGCAUUAUGUCCCUGUGUGUGAGUGCUGUUACUUACGCCGUUUUGUAUCGUACAGUACA; value = 0.32 ratio
Sequence = UGGAGUCUGGCUUUGAAAGAUUUCAUUGUUGGUAGAAAUAACAGGUUGAGAAAGAGGGAGUUAGCAUCACCUAAAACCUGCACGUGAACAAGGGUUGACAUGAUACACUAUGGCCUUAGA; value = 0.735 ratio

Series 2 — method: RNA Bind-n-Seq; molecule type: RNA; medium: in vitro; tested at: 365 nM; reference: no-protein control; direction: higher = stronger binding; measurement: RBNS enrichment (R)
Target: RNA binding protein fox-1 homolog 2, RRM domain, GST-SBP tag (RBFOX2, Homo sapiens, UniProt O43251-10, residues 100-194)
Setting: natural RNA segment, single round, ends assumed
All sequences stand within: GGGAGUUCUACAGUCCGACGAUC … UGGAAUUCUCGGGUGCCAA
Residues (chain): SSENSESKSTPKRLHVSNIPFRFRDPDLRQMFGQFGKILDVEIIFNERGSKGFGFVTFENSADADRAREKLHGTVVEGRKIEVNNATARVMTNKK
Sequence = CAGCACAAAGUUUUAAUGUCAUUGAGAGGGGAAACAAAGGGAAAAGAAAGCCUGUCUGGAGAAGUGUGAUGCCCAAGAAGCACGGAAAGCUACGCCGGUGGAAUGUCAGU; value = 7.04
Sequence = CUCCUACGAGAGUUCUGGCAUAAAGAAGUAAAAAAGAAAAAGAAAAAAACAAACAAAAAAACCAAACCACCUCUACAUAUUAUGGAAAGAAAAUAUUUUUGUCAAUUCUU; value = 0.801
Sequence = GAAUCUGUCCGUCUGUAAGGCGUAGAAUGAGGGUUGUUAAUCCAUCACAAGCAAAAGGUCAGAACAGUUAAACACUGCCUUUCCUCCUCCUCUUAUUUUAUGAUAAAAGC; value = 0.363
Sequence = AAGUCUUGUACUCAAUGACUUUUGUCAUGACAUUUUGUUCUACUUAUACUGUAAAUUAUGCAUUAUAAAGAGUUCAUUUAAGGAAAAUUACUUGGUACAAUAAUUAUUGU; value = 0.305
Sequence = UAAAACUUCAAGUAUUAAAAUAAUUUGUACAUGUAGAGAGAAAAAUGACUUUUUCAAAAAUAUACAGGGGCAGCUGCCAAAUUGAUGUAUUAUAUAUUGUGGUUUCUGUU; value = 0.619
Sequence = CCGCUCUGGCCAAGGGCUGUCUUCUGUGCACAUAGCUCAGGAGCCUGCAGCAGUUCCCUGUAUGGGUGGAUGUCCUCAGGGGCCAAGAAGAGAAGAAUGGGGACAACAGA; value = 0.629
Sequence = AGCUUGUGAAGAUUGGGGACACUCAUAUUGCCCUAAUUAAAAACUGUGAUUUUUAUCACAAGGGAGGGGAGGCCGAGAGUCAGACUGAUAGACACCAUAGGAGCCGACUC; value = 0.766
Sequence = GCUCUGCAAGUAGUUUAGUAGGAAUGAAGUGGAAGUCCAGGCUUGGAUUGCCUAACUACACUGCUAAAAAUAUUUGUAAUCCUUAAUAAUUAAACUUUGGAUUUGUUAAA; value = 0.968
Sequence = UCUUAAGCAGGUGGGAGGCAGGGAAGGGUGCACCAGCGUGUCUUUCCCUGACUUUACAUGGUGUUUUGUUAAUGCAAAUCCGGGAAGCAGGUGUGAUUGCUUUUUGCUCG; value = 0.75
Sequence = UUCCCACCCCCUCCUGCCAGCACACAGCCUGGGGUCCCUCCCUCAGGGGCUGUAAGGGAAGGCCCACCCCAACUCUUACCAGGAGCUGCUACAGGCAGAGCCCAGCACUG; value = 0.642
Sequence = UCUGAGAACCACUUGUCCCAGUAUGACACCUCUUACUAUCUCAGCAGCCUGUGCAGGGUCUCUGUCCUCAGAGCUCCAGACACCAGCAUCCUACUCUCAAGGAUGAAGUC; value = 0.472
Sequence = UCCCGUCCCUGUAGCUGCUCUGUUUAGACAGCGGACAGACGCUCACGCCCAGGGGAUGUCCUCACGCUGUCGCCGCGCGGUUUCCCUUCGCAGAUGUGUAUACUCAUGAU; value = 0.286

Series 3 — method: universal PBM; molecule type: double-stranded DNA, one strand shown; medium: in vitro; tested at: not given; direction: higher = stronger binding; measurement: E-score
Target: Sal-like protein 4, full length isoform B (SALL4, Homo sapiens, UniProt Q9UJQ4-2, residues 1-616)
Setting: 8-mer, flanks averaged, mean of replicates
Sequence = AGAGAGTA; value = -0.00141
Sequence = ATTTATGG; value = 0.331
Sequence = CCACGCCG; value = -0.287
Sequence = AGGAGTGA; value = -0.0589
Sequence = AACCCGTG; value = -0.268
Sequence = CCTGGGAC; value = -0.395
Sequence = GCACTAGC; value = -0.127
Sequence = ACATGGGG; value = -0.296
Sequence = ATCATCTC; value = 0.151
Sequence = AAGTCAAT; value = 0.193
Sequence = CTGGAGCC; value = -0.265
Sequence = GCTAGCGA; value = -0.0449
Sequence = AATTGTAA; value = 0.318
Sequence = ACTAGTCT; value = 0.0703
Sequence = CGCCACCC; value = -0.278
Sequence = AGACCCAT; value = -0.0849
Sequence = ATTTGGCC; value = -0.0337

Series 4 — method: protein binding microarray; molecule type: double-stranded DNA, one strand shown; medium: in vitro; tested at: not given; reference: not given; direction: higher = stronger binding; measurement: E-score
Target: Histone acetyltransferase KAT6A, winged helix 2, GST fusion (KAT6A, Homo sapiens, UniProt Q92794, residues 85-181)
Setting: 8-mer, flanks averaged, mean of 2 arrays, mostly near background
Construct (chain): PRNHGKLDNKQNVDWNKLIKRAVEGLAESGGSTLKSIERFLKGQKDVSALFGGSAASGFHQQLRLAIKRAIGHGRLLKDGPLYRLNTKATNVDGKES
Sequence = CACTGCGG; value = 0.219
Sequence = ACGGAACA; value = -0.0387
Sequence = CCCAGTGC; value = 0.129
Sequence = ATCGAGAG; value = 0.0661
Sequence = ACCATGAT; value = -0.184
Sequence = ACAGGGGC; value = -0.00619
Sequence = CTGCACCC; value = -0.0748
Sequence = TACTCACA; value = -0.0991
Sequence = CTCATTGC; value = 0.0136
Sequence = GCGTAAAC; value = 0.118
Sequence = ATCGGGCG; value = 0.113
Sequence = AGCTACGA; value = -0.177
Sequence = ACTGCATG; value = 0.067
Sequence = ACAAACGC; value = -0.0297
Sequence = CCTATAAC; value = -0.342
Sequence = AACGCATC; value = -0.0537
Sequence = CGACCCGC; value = 0.135
Sequence = TACGTGCA; value = -0.282
Sequence = AACCTGTG; value = -0.158
Sequence = CTGCCGAA; value = 0.144
Sequence = TCTTGCAA; value = 0.159
